# Experimental data gathered from unrelated publications.
# Compare with care: the assays were run in different laboratories. Several values in a cell are separate wells, animals, samples, runs or records. ± marks the error that the study gave.
# rep main protease: Replicase polyprotein 1ab, main protease (rep, Severe acute respiratory syndrome coronavirus 2, UniProt P0DTD1)
# Spike glycoprotein: Spike glycoprotein (Severe acute respiratory syndrome coronavirus 2, UniProt P0DTC2)
Compound,target,assay,system,conditions,how to read,quantity,value
CCc1c(C(=O)C(N)=O)c2c(OCC(=O)O)cccc2n1Cc1ccccc1,Daboia russelii venom phospholipase A2,"enzyme activity, inhibitor",KL population,"0.01 µM, with: NOB substrate",baseline: venom alone,remaining activity,86.3% and 82.1% and 82.3%
Cc1cncc(CC(=O)N2CCC[C@@H]([C@@H]3CCN(C(=O)c4cnn(-c5ccccn5)c4)C3)C2)c1,rep main protease,"enzyme activity, inhibitor",,"5 µM, run 2",,inhibition,20.5%
COC(=O)N[C@H](C(=O)NNC[C@H](O)[C@H](Cc1ccccc1)NC(=O)[C@@H](NC(=O)OC)C(C)(C)C)C(C)(C)C,rep main protease,"viral replication, Gluc reporter",SARS-CoV-2,20 µM,,inhibition,0.637%
O=C(O[C@@H]1Cc2c(O)cc(O)cc2O[C@@H]1c1cc(O)c(O)c(O)c1)c1cc(O)c(O)c(O)c1,Spike glycoprotein,"binding, BLI",,,,kon,231 M⁻¹ s⁻¹
N=C(N)c1ccc2cc(OC(=O)c3ccc(N=C(N)N)cc3)ccc2c1,rep main protease,"reporter gene (Gaussia luciferase), inhibitor",,20 µM,,inhibition,3.17%
Nc1ncnc2c1ncn2[C@@H]1O[C@H](C[C@@H](N)CC[C@H](N)C(=O)O)[C@@H](O)[C@H]1O,"Replicase polyprotein 1ab, nsp14 N7-methyltransferase (rep, Severe acute respiratory syndrome coronavirus 2, UniProt P0DTD1)","N7-methyltransferase activity, inhibitor, Py-FLINT",,,,Hill slope,1.38 ± 0.05
O=C1NC(=O)[C@@H](CC(=O)N2C[C@H](CO)C3(C2)CN(C(=O)c2cc4ccc(O)cc4[nH]2)C3)N1,rep main protease,"enzyme activity, inhibitor",,"5 µM, mean of runs",,inhibition,15.4%
Nc1cc(OCCCNCc2ccc(S(=O)(=O)F)cc2)ccn1,"cya (Bacillus anthracis, UniProt P40136)",,,,,kinact,0.00105 s⁻¹
COc1cc(O)cc2oc(-c3ccc(O)c(O)c3)c(O)c(=O)c12,rep main protease,"reporter gene (Gaussia luciferase), inhibitor",,20 µM,,inhibition,0.599%
Cc1ccc(C(=O)N2CC3(CCC3)C[C@H]2CNC(=O)c2cncc3[nH]cnc23)cc1O,rep main protease,"enzyme activity, inhibitor",,"5 µM, run 1",,inhibition,17.1%
O=c1cc(-c2ccccc2)c2ccc(O)c(O)c2o1,Spike glycoprotein,"binding, biolayer interferometry",,,,koff,0.0851 s⁻¹
Cc1cc(C(=O)N2CCC3(CC2)CN(C(=O)C[C@@H]2CC[C@H](O)C2)Cc2ccccc2O3)n[nH]1,rep main protease,"enzyme activity, inhibitor",,"5 µM, mean of runs",,inhibition,11.2%
CC#CCn1c(N2CCC[C@@H](N)C2)nc2c1c(=O)n(Cc1nc(C)c3ccccc3n1)c(=O)n2C,rep main protease,"reporter gene (mKate2), inhibitor",,20 µM,,inhibition,-0.552%
COc1ccc(/C=C/c2cc(O)cc(O)c2)cc1O,Spike glycoprotein,"binding, BLI",,,,koff,0.0481 s⁻¹
